# Experimental data from different studies.
# Parts stem from different laboratories: compare values within a part only.
# Chain of UniProt Q00535 (whole entry, looked up): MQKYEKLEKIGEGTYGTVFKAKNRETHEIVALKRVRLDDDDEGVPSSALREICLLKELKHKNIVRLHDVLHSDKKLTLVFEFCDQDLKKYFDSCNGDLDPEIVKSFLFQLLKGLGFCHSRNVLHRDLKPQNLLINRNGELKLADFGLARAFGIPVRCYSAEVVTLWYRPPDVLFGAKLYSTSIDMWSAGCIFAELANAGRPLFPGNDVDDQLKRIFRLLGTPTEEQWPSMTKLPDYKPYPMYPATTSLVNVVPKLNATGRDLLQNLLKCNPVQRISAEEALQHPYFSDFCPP
# Chain of UniProt Q13131 (whole entry, looked up): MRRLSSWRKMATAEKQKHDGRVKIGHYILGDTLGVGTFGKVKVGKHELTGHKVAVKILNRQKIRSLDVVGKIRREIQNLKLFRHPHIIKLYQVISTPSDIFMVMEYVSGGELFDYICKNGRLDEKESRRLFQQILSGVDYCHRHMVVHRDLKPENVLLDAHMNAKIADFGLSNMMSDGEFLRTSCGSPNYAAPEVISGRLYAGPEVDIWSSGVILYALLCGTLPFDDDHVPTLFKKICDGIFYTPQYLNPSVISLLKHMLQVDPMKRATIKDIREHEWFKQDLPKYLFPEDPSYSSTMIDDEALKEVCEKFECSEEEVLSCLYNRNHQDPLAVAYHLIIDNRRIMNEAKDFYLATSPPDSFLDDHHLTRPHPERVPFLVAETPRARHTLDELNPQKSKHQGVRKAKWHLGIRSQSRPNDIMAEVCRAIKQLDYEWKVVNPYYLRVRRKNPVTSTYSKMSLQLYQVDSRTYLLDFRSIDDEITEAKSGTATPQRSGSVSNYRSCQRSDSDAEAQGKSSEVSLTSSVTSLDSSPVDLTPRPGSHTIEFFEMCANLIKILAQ
# Chain of UniProt P07333 (whole entry, looked up): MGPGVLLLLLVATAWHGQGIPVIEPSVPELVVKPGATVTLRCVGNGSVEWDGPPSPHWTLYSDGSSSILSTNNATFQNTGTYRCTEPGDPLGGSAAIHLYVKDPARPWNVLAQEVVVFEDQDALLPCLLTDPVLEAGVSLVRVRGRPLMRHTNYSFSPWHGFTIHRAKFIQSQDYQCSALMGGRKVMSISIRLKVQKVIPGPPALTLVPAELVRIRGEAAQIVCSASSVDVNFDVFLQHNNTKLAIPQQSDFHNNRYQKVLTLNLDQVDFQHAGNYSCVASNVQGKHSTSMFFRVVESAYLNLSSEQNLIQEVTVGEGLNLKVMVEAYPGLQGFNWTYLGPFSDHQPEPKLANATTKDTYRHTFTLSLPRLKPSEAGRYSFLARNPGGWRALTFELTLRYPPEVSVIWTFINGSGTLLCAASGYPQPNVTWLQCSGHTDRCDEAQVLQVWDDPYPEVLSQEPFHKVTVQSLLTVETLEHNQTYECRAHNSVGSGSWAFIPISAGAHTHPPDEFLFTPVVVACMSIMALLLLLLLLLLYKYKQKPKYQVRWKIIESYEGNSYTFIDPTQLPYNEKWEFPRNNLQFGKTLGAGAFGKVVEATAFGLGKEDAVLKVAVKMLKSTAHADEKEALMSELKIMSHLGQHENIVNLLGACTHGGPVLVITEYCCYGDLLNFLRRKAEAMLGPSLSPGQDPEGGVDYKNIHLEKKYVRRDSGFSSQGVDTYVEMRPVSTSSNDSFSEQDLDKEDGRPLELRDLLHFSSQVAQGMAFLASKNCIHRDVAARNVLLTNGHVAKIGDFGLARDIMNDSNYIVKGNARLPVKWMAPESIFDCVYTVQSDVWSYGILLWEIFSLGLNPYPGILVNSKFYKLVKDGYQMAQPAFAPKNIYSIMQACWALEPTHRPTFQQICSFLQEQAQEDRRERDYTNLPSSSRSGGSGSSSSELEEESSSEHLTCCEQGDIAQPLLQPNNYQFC
# Chain of UniProt P23458 (whole entry, looked up): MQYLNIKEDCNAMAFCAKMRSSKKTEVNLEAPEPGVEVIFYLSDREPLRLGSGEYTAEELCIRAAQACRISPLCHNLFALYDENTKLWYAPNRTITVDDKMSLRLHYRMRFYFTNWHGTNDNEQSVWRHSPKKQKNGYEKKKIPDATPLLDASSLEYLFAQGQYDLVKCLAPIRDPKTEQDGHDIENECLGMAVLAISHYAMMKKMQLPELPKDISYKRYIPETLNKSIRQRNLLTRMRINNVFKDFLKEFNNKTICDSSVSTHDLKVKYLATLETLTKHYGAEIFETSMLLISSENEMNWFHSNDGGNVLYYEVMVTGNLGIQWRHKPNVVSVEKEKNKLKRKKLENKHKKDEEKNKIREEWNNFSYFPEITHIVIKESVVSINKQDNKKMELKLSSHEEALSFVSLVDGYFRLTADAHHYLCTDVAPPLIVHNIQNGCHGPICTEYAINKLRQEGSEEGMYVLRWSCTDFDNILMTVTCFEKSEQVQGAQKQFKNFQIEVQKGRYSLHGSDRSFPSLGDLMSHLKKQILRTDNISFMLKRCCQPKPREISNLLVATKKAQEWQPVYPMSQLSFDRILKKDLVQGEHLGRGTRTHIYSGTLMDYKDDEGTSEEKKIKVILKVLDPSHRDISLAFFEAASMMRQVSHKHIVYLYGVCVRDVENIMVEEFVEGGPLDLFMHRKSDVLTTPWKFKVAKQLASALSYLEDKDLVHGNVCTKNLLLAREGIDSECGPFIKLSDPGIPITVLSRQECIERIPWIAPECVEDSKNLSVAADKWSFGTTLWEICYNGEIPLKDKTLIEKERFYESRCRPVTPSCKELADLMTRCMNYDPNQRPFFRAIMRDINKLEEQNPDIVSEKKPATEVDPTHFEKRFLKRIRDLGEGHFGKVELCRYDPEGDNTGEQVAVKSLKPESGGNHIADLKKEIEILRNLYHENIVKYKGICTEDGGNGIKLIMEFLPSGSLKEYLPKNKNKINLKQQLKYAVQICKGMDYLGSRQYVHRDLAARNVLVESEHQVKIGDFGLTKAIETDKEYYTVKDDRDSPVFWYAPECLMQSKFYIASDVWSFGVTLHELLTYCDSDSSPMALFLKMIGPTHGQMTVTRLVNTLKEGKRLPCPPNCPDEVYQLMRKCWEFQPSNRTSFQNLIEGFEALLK
# Chain of UniProt P21127 (whole entry, looked up): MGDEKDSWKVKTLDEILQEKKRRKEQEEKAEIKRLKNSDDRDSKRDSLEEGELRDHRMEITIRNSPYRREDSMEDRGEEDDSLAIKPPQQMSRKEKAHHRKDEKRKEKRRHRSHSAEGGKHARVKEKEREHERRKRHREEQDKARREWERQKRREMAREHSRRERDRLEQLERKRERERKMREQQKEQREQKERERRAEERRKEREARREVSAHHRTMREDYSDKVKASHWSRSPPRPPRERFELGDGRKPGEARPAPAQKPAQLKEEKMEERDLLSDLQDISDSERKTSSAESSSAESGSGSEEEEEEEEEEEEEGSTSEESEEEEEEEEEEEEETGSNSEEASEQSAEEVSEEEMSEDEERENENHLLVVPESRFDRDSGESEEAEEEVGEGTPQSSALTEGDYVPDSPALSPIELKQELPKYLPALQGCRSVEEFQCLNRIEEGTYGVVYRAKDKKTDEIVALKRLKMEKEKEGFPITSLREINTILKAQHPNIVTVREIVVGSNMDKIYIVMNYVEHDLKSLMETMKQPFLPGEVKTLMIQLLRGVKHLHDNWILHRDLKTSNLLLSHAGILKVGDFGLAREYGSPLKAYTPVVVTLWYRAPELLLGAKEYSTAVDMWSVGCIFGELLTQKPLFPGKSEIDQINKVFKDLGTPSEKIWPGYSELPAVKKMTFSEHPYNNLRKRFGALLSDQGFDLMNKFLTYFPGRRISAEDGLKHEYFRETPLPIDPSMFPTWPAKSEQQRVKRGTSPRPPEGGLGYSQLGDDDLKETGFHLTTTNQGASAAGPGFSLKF
# Chain of UniProt Q9HBY8 (whole entry, looked up): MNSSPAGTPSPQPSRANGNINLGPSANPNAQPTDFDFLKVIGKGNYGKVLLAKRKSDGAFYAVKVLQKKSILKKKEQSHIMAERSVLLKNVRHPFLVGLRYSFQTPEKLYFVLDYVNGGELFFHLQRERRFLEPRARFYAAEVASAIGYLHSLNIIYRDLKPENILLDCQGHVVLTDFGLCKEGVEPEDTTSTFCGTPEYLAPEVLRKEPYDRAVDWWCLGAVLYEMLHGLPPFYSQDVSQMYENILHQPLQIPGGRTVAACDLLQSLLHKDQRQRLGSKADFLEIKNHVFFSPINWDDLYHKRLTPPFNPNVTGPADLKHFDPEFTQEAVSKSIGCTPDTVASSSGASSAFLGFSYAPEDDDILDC

# Study 1
# SMILES: CC(C)S(=O)(=O)c1ccc2nccc(Nc3ccc4sc(C5CCCC5)nc4c3)c2c1.Cl
# Read-out: kinase activity
# Action: inhibitor
# Tested at: 1 µM
target,remaining activity [%]
"cGMP-dependent protein kinase 1 (PRKG1, Homo sapiens, UniProt Q13976)",106
"Macrophage-stimulating protein receptor (MST1R, Homo sapiens, UniProt Q04912)",92
"Macrophage colony-stimulating factor 1 receptor (CSF1R, Homo sapiens, UniProt P07333)",64
"Serine/threonine-protein kinase Sgk2 (SGK2, Homo sapiens, UniProt Q9HBY8)",101
"5'-AMP-activated protein kinase catalytic subunit alpha-1 (PRKAA1, Homo sapiens, UniProt Q13131)",110

# Study 2
# Species: human
# Matrix: microsomes or S9
# Tested at: 2 µM
# Time: 0.5 h
SMILES,remaining compound
Cc1cc(C(C)(C)c2cc(C)c(N)c(C)c2)cc(C)c1N,57.8%
CNC(=O)c1cc(Cl)cc(C)c1NC(=O)c1ncc2cccn2c1-c1cnccc1Br,40.7%
COC(=O)C12CC(CCC(C)=O)C(=O)N1CCc1c2n(C(=O)OC(C)(C)C)c2ccccc12 (stereo not drawn),2.34%
CC(C)Cc1cc(C(=O)O)c(S(=O)(=O)NC(C)(C)C)s1,49.8%
Cc1ccn(CCC(=O)N(Cc2ccncc2)Cc2cccc(OCCc3ccc(F)cc3)c2)n1,2.42%
COc1cc(Cn2c(-c3nnc(C)o3)cc3ccccc32)cc(OC)c1,33.6%

# Study 3
# Compound: CC(C)(O)c1cncc(-c2nc3ccc(F)cc3n2C2CC2)c1
# Tested at: 1 µM
target,read-out,technique,remaining binding [%]
"Tyrosine-protein kinase receptor TYRO3 (TYRO3, Homo sapiens, UniProt Q06418)",cell-free assay,competition with immobilised ligand,100
"Tyrosine-protein kinase ABL1, phosphorylated (ABL1, Homo sapiens, UniProt P00519, F317I)",binding,,100
"Tyrosine-protein kinase JAK1, JH2 (JAK1, Homo sapiens, UniProt P23458)",cell-free assay,competition with immobilised ligand,80
"Cyclin-dependent kinase 5 (CDK5, Homo sapiens, UniProt Q00535)",cell-free assay,competition with immobilised ligand,100
"Cyclin-dependent kinase 11B (CDK11B, Homo sapiens, UniProt P21127)",cell-free assay,competition with immobilised ligand,100
"Serine/threonine-protein kinase B-raf (BRAF, Homo sapiens, UniProt P15056, V600E)",cell-free assay,competition with immobilised ligand,98

# Study 4
# Target: SRSF protein kinase 2 (SRPK2, Homo sapiens, UniProt P78362)
# Chain of UniProt P78362 (whole entry, looked up): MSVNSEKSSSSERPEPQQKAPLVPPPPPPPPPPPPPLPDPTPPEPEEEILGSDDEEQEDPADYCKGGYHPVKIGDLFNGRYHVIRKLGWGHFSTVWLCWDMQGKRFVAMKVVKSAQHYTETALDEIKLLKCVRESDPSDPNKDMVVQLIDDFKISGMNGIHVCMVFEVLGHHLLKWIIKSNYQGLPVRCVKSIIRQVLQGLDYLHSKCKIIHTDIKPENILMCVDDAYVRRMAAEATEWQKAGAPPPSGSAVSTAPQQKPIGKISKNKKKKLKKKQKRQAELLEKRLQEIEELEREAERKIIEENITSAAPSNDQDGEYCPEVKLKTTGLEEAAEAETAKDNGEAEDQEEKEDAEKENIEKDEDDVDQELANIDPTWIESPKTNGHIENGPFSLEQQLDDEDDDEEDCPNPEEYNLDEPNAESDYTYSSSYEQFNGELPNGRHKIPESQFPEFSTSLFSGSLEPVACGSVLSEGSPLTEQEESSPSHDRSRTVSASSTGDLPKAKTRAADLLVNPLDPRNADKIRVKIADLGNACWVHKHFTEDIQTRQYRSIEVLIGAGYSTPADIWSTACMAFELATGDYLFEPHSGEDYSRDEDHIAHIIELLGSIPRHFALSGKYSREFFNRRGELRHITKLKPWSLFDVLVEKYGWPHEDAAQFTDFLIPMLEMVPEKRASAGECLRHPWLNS
# Read-out: enzyme activity
# Action: inhibitor
# Tested at: 0.5 µM
# Reference: control
Compound,remaining activity
O=C(Nc1cccc(Nc2cc(Nc3cccc(C(F)(F)F)c3)ncn2)c1)C1CC1,92%
COc1cc2ncnc(Nc3ccc(F)c(Cl)c3)c2cc1OCCCN1CCOCC1,99.5%
Cc1cccc(-c2[nH]c(C(C)(C)C)nc2-c2ccc3c(c2)OCO3)n1,95.8%
Cc1nc(-c2ccccc2)c(-c2ccncc2)o1,92.3%
O=C1NC(=O)C(c2cn(CCCO)c3ncccc23)=C1c1cnccn1,97.9%
Oc1ccc(-c2nc(-c3ccncc3)c(-c3ccc(F)cc3)[nH]2)cc1,102%
Cc1ccc(Nc2nccc(N(C)c3ccc4c(C)n(C)nc4c3)n2)cc1S(N)(=O)=O,104%
COc1ccc(OC)c2c(=S)c3ccccc3[nH]c12,95.1%
Nc1ncnc2n[nH]c(Nc3ccc(F)cc3)c12,97.1%
O=C(CCCc1ccc(-c2ccccc2F)cc1)Nc1ccc(O)cc1,94.3%
Cn1sc(=O)n(Cc2ccccc2)c1=O,98.1%
Cn1c2ccccc2c2c3c(c4c5ccccc5n(CCC#N)c4c21)CNC3=O,95%
Nc1ccc2ncnc(NCCc3ccc(Oc4ccccc4)cc3)c2c1,95.3%
O=S(=O)(c1cccc2cnccc12)N1CCCNCC1,83.9%
N#CC(C#N)=C(N)/C(C#N)=C/c1ccc(O)cc1,88.8%
O=C1NC(=O)C(c2cn(CCCn3ccnc3)c3ccccc23)=C1Nc1ccccc1,96.2%

# Repeated from above (study 1):
target,remaining activity [%]
"Serine/threonine-protein kinase Sgk2 (SGK2, Homo sapiens, UniProt Q9HBY8)",101
"Macrophage-stimulating protein receptor (MST1R, Homo sapiens, UniProt Q04912)",92
